Measured values pooled from the literature.
Numbered parts are unrelated; each lists some results of a single study. Substitutions count along the parent as printed.

Block 1
Target: Ras GTPase-activating protein-binding protein 1, RRM domain (G3BP1, Homo sapiens, UniProt Q13283)
UniProt Q13283, sequence (whole entry, looked up): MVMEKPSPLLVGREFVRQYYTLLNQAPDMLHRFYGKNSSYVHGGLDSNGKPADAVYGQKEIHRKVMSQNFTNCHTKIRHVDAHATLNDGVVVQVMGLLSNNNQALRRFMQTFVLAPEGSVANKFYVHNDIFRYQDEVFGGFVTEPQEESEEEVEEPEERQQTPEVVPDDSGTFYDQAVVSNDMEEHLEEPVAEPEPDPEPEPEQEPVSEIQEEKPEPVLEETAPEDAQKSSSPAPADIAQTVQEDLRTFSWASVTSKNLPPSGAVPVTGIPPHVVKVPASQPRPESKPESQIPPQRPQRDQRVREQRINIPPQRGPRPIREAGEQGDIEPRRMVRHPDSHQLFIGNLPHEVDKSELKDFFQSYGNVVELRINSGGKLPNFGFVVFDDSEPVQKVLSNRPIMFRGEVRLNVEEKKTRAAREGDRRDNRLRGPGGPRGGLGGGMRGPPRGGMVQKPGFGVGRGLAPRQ
Method: RNA Bind-n-Seq
Molecule type: RNA
Medium: in vitro
Tested at: 1 µM
Notes: whole 134-nt RNA, ends assumed
With: 150 mM KCl
Reference: input library
Reading: higher = stronger binding
Quantity: log2 enrichment
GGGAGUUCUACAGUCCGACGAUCAGUCCUGUGCUACACAUCGUAUGUACCGAAUCGGUUUUUGGUUUUUGGUUUUUGGGGAAAGUAUUAUGUUACGCCGUUCGGAUCUGCACUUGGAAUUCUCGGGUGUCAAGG: -0.119
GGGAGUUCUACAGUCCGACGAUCGUCCUGUGCUACACAUCGUAUGUACCGAAUCAAAUUUUUUUAAAUUUAAACCCCCAAAAAAGUAUUAUGUUACGCCGUUCGGAUCUGCACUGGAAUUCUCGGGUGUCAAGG: -1.49
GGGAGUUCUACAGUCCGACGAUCAAGUCCUGUGCUACACAUCGUAUGUACCGAAUCGGGUUUUGGGUUUUGGGGUUUUGGAAAGUAUUAUGUUACGCCGUUCGGAUCUGCACUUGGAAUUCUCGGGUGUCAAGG: -0.175
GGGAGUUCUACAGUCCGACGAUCCAAGUCCUGUGCUACACAUCGUAUGUACCGAAUCGGAAAAGGGAAAAGGAAAAGGAAAGUAUUAUGUUACGCCGUUCGGAUCUGCACUUCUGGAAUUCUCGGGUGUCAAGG: -0.0699
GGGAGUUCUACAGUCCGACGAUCAACUAAUACUCUUAAAUGGUCUUUCAGUAUAGUGGUUCUUACGUAGUUUAACAUAGCUAUAAAUUGAGUUUAACAAUUUAUAAACUCAAGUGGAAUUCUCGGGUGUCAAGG: -0.202
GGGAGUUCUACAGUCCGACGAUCGUCCUGUGCUACACAUCGUAUGUACCGAAUCGGGAAAAAGGGAAAGGGAAAAAAAGGGAAAGUAUUAUGUUACGCCGUUCGGAUCUGCACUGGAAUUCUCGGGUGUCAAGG: 0.106
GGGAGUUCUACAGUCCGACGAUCCUCAAGUCCUGUGCUACACAUCGUAUGUACCGAAUCGGGUGGGGUGGGGUGGGAAAGUAUUAUGUUACGCCGUUCGGAUCUGCACUUCCAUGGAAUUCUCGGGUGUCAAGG: 0.679
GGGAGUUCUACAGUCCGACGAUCUCCUGUGCUACACAUCGUAUGUACCGAAUCGGGGUUUUUUGGGUUUUUUGGUUUUUUGGAAAGUAUUAUGUUACGCCGUUCGGAUCUGCAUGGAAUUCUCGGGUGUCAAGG: -0.133
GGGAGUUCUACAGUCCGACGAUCGCAGGAAGUAAAAACAAAUGGAAAUGGUUCGGAUAGUGGCAGGGGUGGGGGUUGCUAAGGAAAGGGUGGGAUGGGAGUGGGUAAAGAGUUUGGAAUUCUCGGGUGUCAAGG: 1.22

Block 2
Target: ABI1, truncated, D143A, DHFR fusion (Arabidopsis thaliana)
Method: DHFR PCA, deep sequencing
Medium: yeast
Notes: methotrexate growth selection, single substitutions
With: (+)-ABA 2500 µM
Reference: wild-type fitted maximum
Reading: higher = stronger binding
Quantity: relative binding score
Parent: PYL1, truncated, DHFR fusion (Arabidopsis thaliana); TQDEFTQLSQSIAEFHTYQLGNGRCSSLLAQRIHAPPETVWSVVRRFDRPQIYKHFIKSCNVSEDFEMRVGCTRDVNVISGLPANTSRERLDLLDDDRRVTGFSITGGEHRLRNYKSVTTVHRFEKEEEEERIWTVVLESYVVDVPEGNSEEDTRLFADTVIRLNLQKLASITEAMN
N177F: 88.5%
E151S: 95.6%
F157A: 54.5%
N85A: 97.2%
G108N: 85.6%
V137T: 73.8%
N149Q: 84.4%
A84D: 56.2%
I162K: 59.9%
T6C: 101%
V78K: -1.44%
L169C: 72.1%
S26K: 94.6%
E64P: 93.1%
E38N: 93%
E128I: 100%
V100C: 99.2%
L164K: 93.5%

Block 3
Target: BATF, bZIP domain (human)
Method: DHFR protein complementation
Medium: yeast
Notes: single substitutions, most at no-binding floor
Reference: wild-type JUN-FOS pair
Reading: higher = stronger binding
Quantity: binding fitness
Parent: JUN, bZIP domain (human); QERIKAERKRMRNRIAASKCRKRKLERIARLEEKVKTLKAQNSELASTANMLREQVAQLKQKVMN; partner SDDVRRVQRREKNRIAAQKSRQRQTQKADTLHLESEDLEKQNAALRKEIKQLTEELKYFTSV
L31C: -0.212 natural log
L45Y: -0.321 natural log
A49D: -1.36 natural log
A57N: 0.0103 natural log
Q41N: -0.269 natural log
A29G: -0.0821 natural log
A40Y: -0.159 natural log
K34E: -0.161 natural log
Q41T: -0.0184 natural log
S47L: -0.0116 natural log
L59P: -0.909 natural log
A29I: -0.0895 natural log
Q55W: -0.366 natural log
A46M: 0.0474 natural log
R53N: -0.548 natural log
S43V: -0.0442 natural log
T37Q: 0.147 natural log
R30I: 0.017 natural log

Block 4
Target: Interferon regulatory factor 7, full length, phosphomimetic (IRF7, Homo sapiens, UniProt Q92985, residues 1-503, S471D/S472D/S475D/S476D/S477D/S483D/S484D/S487D)
Method: protein-binding microarray
Molecule type: double-stranded DNA, one strand shown
Medium: in vitro
Tested at: 2200 nM top
Notes: 60-bp whole probe
With: salmon DNA 0.4 mg/ml
Reference: random background probes
Reading: higher = stronger binding
Quantity: fitted relative affinity
All sequences stand within: GCCTAGCAC … GTCTTGATTCGCTTGACGCTGCTG
Construct (chain): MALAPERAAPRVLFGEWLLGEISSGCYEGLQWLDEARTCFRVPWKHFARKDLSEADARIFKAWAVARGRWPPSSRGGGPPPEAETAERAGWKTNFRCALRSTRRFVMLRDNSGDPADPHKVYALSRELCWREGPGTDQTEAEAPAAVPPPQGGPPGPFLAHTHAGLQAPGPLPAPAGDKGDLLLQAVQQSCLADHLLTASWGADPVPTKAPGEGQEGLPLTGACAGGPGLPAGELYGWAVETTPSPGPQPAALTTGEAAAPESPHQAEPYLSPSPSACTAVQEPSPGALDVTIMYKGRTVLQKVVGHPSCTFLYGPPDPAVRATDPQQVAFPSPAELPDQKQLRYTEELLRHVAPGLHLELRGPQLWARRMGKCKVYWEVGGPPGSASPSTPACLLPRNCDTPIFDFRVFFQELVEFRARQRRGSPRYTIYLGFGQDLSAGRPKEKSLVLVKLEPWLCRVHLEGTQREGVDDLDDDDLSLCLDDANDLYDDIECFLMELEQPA
GACGGTTTCGACACTGGGGAAGTGCTA: 2.7 z-score
TTAGGACTGCTTTTTCTTTAGTGCTAG: 0.588 z-score
GACGGTATCGGTATTGGGACGTGCTAG: 0.445 z-score
GGCGGTCTCCTTATCCTGACGTGCTAG: 0.17 z-score
TCATTTATAAATTATCTTACTGTGCTA: 0.415 z-score
TCAGTTTGCCTCCTTCAGACTGTGCTA: 2.33 z-score
GAGGGACTGGGTTTCGGGACGTGCTAG: 1.13 z-score
TCAAGTTTAATATCTAAGACTGTGCTA: -0.663 z-score
GCCGATTTCAGTTTCGAGACGTGCTAG: 6.33 z-score
AACGGTCTCCTTATCCTGACGTGCTAG: 1.09 z-score
GACGATATCTGGACTGGAGACGTGCTA: 0.0116 z-score
AACGAACTGGGGTATCGAGACGTGCTA: -0.00261 z-score
TCACATTCACCTGTCGTACTGTGCTAG: 2.7 z-score
GACGATATCGGGACAGGAGACGTGCTA: -0.268 z-score
TTCTTTTTTTCTTTTATTAGGTGCTAG: 3.36 z-score
TCATCTTCCCTTTTAAGACTGTGCTAG: 2.84 z-score
GACGGTCTCGGTCTCGGGATGTGCTAG: -0.0413 z-score

Repeated from above (block 4):
AACGGTCTCCTTATCCTGACGTGCTAG: 1.09 z-score
GACGATATCGGGACAGGAGACGTGCTA: -0.268 z-score
TTAGGACTGCTTTTTCTTTAGTGCTAG: 0.588 z-score
GAGGGACTGGGTTTCGGGACGTGCTAG: 1.13 z-score
AACGAACTGGGGTATCGAGACGTGCTA: -0.00261 z-score
